Measurements of several laboratories.
Each numbered part is a random draw from the data of one study; scales do not carry over between parts. Values joined by “and” are separate records of one study, mostly repeats; a detail may differ.
Chain of UniProt O94804 (whole entry, looked up): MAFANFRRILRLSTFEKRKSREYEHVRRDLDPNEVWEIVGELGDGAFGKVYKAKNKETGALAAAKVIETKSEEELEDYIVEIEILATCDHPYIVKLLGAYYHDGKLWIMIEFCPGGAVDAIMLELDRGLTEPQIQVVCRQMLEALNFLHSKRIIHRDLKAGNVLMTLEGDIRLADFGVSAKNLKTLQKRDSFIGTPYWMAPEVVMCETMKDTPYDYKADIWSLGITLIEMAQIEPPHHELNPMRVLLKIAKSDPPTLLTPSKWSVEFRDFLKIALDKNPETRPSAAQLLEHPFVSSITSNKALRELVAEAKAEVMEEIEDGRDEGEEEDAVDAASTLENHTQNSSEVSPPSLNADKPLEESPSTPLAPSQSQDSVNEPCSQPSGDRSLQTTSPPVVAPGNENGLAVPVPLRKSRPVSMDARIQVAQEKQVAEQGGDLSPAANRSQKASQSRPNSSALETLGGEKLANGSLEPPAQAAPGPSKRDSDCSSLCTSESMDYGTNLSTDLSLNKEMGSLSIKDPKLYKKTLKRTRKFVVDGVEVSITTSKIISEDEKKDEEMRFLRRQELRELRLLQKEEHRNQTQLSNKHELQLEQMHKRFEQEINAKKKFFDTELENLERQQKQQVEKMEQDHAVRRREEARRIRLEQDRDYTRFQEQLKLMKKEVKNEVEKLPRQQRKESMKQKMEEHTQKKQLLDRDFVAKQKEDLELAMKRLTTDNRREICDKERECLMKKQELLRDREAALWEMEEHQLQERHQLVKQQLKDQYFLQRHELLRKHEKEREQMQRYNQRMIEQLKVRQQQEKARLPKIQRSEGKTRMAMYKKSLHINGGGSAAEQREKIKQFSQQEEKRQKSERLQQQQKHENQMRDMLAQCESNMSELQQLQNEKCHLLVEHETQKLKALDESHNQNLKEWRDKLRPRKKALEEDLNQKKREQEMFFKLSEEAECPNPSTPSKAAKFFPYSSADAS
Chain of UniProt P53355 (whole entry, looked up): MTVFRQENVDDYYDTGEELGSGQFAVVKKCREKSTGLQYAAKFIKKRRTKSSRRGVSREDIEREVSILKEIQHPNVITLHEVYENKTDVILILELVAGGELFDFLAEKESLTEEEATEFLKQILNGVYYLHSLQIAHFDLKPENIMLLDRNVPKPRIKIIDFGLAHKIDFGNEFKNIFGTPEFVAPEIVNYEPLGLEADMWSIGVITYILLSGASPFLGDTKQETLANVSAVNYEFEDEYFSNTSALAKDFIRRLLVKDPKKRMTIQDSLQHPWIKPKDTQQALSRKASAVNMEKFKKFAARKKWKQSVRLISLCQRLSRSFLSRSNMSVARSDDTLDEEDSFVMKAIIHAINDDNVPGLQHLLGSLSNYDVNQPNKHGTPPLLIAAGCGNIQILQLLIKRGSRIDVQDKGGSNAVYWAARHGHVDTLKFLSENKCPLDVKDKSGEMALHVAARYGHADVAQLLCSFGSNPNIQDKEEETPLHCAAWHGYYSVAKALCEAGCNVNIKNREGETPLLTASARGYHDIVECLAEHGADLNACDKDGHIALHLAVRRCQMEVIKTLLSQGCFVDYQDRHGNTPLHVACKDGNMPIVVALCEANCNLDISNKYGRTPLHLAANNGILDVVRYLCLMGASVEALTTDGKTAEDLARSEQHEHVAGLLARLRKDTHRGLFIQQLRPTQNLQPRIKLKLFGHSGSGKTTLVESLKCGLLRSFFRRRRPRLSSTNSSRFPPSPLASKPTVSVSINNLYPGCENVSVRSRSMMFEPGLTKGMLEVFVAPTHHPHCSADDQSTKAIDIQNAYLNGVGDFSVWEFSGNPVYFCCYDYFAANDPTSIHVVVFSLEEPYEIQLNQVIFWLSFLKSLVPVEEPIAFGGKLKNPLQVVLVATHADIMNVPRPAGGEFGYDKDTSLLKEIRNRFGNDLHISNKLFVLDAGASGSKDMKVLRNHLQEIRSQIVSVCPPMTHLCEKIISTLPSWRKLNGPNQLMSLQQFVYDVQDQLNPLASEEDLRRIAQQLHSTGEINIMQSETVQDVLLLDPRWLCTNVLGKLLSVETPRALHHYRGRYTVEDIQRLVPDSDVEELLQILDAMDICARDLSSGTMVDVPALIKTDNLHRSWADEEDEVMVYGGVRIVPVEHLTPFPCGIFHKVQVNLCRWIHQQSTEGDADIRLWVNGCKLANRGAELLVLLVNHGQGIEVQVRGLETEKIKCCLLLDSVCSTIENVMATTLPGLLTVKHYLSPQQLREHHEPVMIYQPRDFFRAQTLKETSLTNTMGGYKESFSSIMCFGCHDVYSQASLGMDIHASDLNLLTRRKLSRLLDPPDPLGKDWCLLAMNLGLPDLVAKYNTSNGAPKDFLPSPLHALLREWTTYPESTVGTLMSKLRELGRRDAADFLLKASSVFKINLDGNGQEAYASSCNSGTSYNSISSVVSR
Chain of UniProt Q99759 (whole entry, looked up): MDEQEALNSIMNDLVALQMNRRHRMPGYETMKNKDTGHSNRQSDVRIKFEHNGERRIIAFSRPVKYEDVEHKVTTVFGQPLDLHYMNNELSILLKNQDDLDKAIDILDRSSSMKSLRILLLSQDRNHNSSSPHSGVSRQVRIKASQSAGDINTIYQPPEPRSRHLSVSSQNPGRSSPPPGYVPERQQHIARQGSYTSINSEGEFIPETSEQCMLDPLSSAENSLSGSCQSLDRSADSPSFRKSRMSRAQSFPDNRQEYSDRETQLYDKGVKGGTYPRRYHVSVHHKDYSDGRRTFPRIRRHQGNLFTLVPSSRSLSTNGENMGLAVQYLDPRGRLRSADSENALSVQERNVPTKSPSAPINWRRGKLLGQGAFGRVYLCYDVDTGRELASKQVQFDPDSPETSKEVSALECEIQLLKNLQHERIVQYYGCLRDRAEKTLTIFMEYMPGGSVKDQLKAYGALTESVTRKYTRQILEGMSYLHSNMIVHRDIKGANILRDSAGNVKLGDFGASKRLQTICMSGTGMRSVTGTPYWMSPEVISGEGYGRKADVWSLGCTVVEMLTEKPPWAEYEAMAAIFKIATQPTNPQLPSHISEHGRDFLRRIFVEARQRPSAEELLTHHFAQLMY
Chain of UniProt Q14164 (whole entry, looked up): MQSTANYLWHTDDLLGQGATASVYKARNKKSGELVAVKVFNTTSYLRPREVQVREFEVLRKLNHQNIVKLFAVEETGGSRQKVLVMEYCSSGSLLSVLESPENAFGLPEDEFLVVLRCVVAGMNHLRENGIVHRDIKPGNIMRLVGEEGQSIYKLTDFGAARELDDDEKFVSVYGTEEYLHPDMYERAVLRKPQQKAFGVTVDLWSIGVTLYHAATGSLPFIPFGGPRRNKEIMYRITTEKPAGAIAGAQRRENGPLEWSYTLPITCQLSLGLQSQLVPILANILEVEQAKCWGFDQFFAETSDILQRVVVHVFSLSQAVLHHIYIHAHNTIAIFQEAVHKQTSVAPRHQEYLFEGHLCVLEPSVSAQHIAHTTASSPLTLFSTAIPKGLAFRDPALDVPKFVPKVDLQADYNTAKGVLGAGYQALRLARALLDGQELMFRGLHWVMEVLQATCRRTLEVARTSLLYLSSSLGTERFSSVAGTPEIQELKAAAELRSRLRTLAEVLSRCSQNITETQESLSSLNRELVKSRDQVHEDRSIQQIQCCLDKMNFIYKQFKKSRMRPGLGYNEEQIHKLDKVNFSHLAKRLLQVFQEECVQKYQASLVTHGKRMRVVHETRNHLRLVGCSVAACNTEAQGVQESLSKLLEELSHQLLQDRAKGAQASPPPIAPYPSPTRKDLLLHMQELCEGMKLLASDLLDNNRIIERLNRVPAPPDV
Chain of UniProt Q00535 (whole entry, looked up): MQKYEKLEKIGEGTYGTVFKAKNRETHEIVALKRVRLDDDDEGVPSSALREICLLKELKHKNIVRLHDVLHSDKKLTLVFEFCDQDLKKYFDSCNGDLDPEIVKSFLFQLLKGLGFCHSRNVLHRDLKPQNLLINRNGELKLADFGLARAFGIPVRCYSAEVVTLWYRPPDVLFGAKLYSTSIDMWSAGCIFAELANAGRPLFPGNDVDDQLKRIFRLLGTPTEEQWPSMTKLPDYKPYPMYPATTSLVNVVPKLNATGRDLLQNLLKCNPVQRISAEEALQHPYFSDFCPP
Chain of UniProt O96017 (whole entry, looked up): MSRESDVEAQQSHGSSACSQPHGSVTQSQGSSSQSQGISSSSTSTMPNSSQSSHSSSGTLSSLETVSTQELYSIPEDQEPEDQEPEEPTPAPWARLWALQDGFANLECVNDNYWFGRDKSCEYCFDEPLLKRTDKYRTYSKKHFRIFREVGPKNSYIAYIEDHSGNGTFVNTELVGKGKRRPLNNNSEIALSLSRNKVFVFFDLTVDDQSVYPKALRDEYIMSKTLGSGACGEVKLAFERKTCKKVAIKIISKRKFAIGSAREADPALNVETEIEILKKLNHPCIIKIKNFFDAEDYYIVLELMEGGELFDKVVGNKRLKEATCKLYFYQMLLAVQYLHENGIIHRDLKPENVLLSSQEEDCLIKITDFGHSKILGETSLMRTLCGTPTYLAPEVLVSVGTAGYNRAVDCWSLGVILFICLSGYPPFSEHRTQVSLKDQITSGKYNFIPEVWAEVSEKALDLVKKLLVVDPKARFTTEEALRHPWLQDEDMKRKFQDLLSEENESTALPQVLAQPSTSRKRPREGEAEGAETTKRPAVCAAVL
Chain of UniProt Q96BR1 (whole entry, looked up): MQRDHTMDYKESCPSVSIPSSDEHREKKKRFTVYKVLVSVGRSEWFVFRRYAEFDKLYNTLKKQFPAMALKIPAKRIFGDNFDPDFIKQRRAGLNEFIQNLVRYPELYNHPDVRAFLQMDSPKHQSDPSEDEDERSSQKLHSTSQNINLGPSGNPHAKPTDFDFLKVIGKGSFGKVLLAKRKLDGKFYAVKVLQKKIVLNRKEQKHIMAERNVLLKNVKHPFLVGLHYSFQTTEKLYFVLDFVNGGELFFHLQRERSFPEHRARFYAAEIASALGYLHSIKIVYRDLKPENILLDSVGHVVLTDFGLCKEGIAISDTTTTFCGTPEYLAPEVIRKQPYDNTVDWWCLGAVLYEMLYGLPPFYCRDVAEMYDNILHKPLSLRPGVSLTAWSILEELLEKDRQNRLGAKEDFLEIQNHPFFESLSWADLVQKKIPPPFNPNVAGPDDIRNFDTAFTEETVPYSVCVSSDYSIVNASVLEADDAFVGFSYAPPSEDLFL

Set 1 — effect on: cell-free assay; technique: competition with immobilised ligand; tested at: 1 µM
Compound: COc1ccc2c(O[C@@H]3C[C@H]4C(=O)N[C@]5(C(=O)O)CC5/C=C\CCCCC[C@H](NC(=O)OC5CCCC5)C(=O)N4C3)cc(-c3csc(NC(=O)C(C)C)n3)nc2c1C (stereo partly shown)
target | remaining binding
KIT (Homo sapiens, UniProt P10721, D816V) | 95%
EGFR (Homo sapiens, UniProt P00533, del752-759) | 75%
SGK3 (Homo sapiens, UniProt Q96BR1) | 75%
PLK2 (Homo sapiens, UniProt Q9NYY3) | 69%

Set 2 — technique: protein-binding microarray; form: double-stranded DNA, one strand shown; medium: in vitro; tested at: not given; direction: higher = stronger binding
Target: Protein C-ets-1 (ETS1, Homo sapiens, UniProt P14921, residues 1-441, K379A, full length assumed)
Notes: k-mer, scored over probes, only values ≥0.25
Target sequence (chain): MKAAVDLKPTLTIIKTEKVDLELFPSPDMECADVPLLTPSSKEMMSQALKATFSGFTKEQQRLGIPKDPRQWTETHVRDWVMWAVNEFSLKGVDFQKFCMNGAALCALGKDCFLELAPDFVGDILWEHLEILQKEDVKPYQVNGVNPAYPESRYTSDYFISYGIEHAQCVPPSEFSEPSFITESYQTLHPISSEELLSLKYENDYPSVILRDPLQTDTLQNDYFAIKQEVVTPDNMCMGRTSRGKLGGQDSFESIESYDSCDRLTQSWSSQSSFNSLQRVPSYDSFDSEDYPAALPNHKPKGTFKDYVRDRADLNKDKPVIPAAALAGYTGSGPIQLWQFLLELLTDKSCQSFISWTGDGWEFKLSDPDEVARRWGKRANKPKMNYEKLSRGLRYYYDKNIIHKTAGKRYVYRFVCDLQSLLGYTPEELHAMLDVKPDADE
Oligonucleotide | E-score
CACCGCCC | 0.273
CTCCGGAA | 0.279
AAAACCGG | 0.319
ATCCGACA | 0.312
ACTATCCG | 0.295
CCCCCGGC | 0.285
CCGGTTCC | 0.308
AAGTACCG | 0.256

Set 3 — organism: Leishmania donovani; strain: DD8
Compound: c1ccc(Oc2ccc(Nc3c4c(nc5ccccc35)CCC4)cc2)cc1
test | test system | conditions | inhibition
parasite killing | promastigotes | 3.33 µM, 72 h | 87% and 93% and 90%
parasite viability, resazurin | promastigotes | 1.66 µM | 81% and 84% and 80%
parasite killing | intracellular amastigotes | 0.08 µM, 96 h | 19% and 16%

Set 4 — cell line: HaCaT; tested at: 100 µM; time: 36 h
Structure (SMILES) | viability [%]
C[C@@H](O[C@H]1OCCN(Cc2nc(O)n(P(=O)(O)O)n2)[C@H]1c1ccc(F)cc1)c1cc(C(F)(F)F)cc(C(F)(F)F)c1 | 6.58
Cc1cc2c(cc1S(N)(=O)=O)S(=O)(=O)CCC2 | 69.5
Cc1cc(CC(=O)O)n(C)c1C(=O)c1ccc(Cl)cc1 | 95.9
CCCc1nc(C(C)(C)O)c(C(=O)OCc2oc(=O)oc2C)n1Cc1ccc(-c2ccccc2-c2nnn[nH]2)cc1 | 100
C=C1CC[C@H](O)C/C1=C/C=C1\CCC[C@]2(C)[C@@H]([C@H](C)/C=C/[C@H](C)C(C)C)CC[C@@H]12 | 24.1
O=C(NC1CCN(CCCCC2(C(=O)NCC(F)(F)F)c3ccccc3-c3ccccc32)CC1)c1ccccc1-c1ccc(C(F)(F)F)cc1 | 7.76

Set 5 — Structure (SMILES): Cc1cc2ncc(-c3ccccc3)nc2cc1C; effect on: enzyme activity; mode: inhibitor; tested at: 0.5 µM; relative to: control
target | remaining activity
DAPK2 (Homo sapiens, UniProt Q9UIK4) | 92.6%
TGFBR1 (Homo sapiens, UniProt P36897) | 94.7%
CHEK2 (Homo sapiens, UniProt O96017) | 96.8%
MAP3K3 (Homo sapiens, UniProt Q99759) | 103%
NEK2 (Homo sapiens, UniProt P51955) | 75.7%
TGFBR2 (Homo sapiens, UniProt P37173) | 130%
STK39 (Homo sapiens, UniProt Q9UEW8) | 103%
Tyrosine-protein kinase Lyn, isoform B (LYN, Homo sapiens, UniProt P07948) | 100%
Protein kinase C beta type, isoform beta-I (PRKCB, Homo sapiens, UniProt P05771) | 103%
Cyclin-dependent kinase 5, with p25 (CDK5, Homo sapiens, UniProt Q00535) | 96.6%
PRKCA (Homo sapiens, UniProt P17252) | 90.5%
OXSR1 (Homo sapiens, UniProt O95747) | 85.6%
Cyclin-dependent kinase 4, with cyclin D1 (CDK4, Homo sapiens, UniProt P11802) | 101%
PRKACA (Homo sapiens, UniProt P17612) | 108%
STK10 (Homo sapiens, UniProt O94804) | 90.7%
CAMKK2 (Homo sapiens, UniProt Q96RR4) | 91.8%
MAPK9 (Homo sapiens, UniProt P45984) | 104%
GRK3 (Homo sapiens, UniProt P35626) | 87.4%
cGMP-dependent protein kinase 1, isoform beta (PRKG1, Homo sapiens, UniProt Q13976) | 93.7%
CAMK2D (Homo sapiens, UniProt Q13557) | 88.1%
IKBKB (Homo sapiens, UniProt O14920) | 101%
IKBKE (Homo sapiens, UniProt Q14164) | 101%
DAPK1 (Homo sapiens, UniProt P53355) | 88.4%

Other studies, line by line — medium: plasma
Compound | test | test system | conditions | endpoint | value
O=C1CCC(N2Cc3cc(C4CCN(Cc5ccccc5)CC4)ccc3C2=O)C(=O)N1 (stereo not shown) |  | rat Sprague Dawley male | intravenous, 1.0 mg/kg | Vz | 23500 mL/kg and 11800 mL/kg
COc1ccc(-c2c(Nc3ccccn3)[nH]c3c(C4=CCCCC4)c(-c4ccccc4)nn3c2=O)cc1 | LC-MS/MS | human | 50 mg once daily | AUC(0-tau), dose-normalised | 697 ng·h/mL/mg and 646 ng·h/mL/mg and 661 ng·h/mL/mg

Some of these lines once more (set 3):
test | test system | conditions | inhibition
parasite viability, resazurin | promastigotes | 1.66 µM | 81% and 84% and 80%
parasite killing | promastigotes | 3.33 µM, 72 h | 87% and 93% and 90%
parasite killing | intracellular amastigotes | 0.08 µM, 96 h | 19% and 16%
